Experimental data collected from several papers.
A part holds a random share of what one study measured. Positions count from the first letter of the parent shown.

Block 1
Target: RING finger protein unkempt homolog, zinc fingers 1-6, GST-SBP tag (UNK, Homo sapiens, UniProt Q9C0B0, residues 30-357)
Technique: RNA Bind-n-Seq
Molecule type: RNA
Matrix: in vitro
Tested at: not given
Setting: RNA with constant flanks, human and mouse sites, ends assumed
Reference: input RNA pool
Reading: higher = stronger binding
Target sequence (chain): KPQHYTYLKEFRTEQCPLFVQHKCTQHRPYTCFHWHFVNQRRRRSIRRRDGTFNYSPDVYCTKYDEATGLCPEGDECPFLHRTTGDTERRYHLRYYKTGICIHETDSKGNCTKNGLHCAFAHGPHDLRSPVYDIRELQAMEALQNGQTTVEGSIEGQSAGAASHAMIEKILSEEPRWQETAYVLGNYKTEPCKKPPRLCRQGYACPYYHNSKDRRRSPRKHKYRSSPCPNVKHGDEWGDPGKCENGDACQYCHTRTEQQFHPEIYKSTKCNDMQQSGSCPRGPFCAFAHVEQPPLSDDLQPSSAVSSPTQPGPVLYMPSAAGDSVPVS
For `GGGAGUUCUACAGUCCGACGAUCGUGGACAUGGCAGCACAGGUGGCUGCAGGAAUGGCUUACAUCGAGCGCAUGAAUUAUAUCCAUAGAGAUCUGCGAUCAGCAAACAUUCUAGUGGGGAAUGGACUCAUAUGCAAGAUUGCUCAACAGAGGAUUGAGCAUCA`, the bound/input enrichment was 0.583 ratio.
With `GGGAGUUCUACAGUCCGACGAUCGCAUAAAUCCACCCCUGUUUGAAAUCUAUCAAGUCUUGUUAAGCCCAACACAACAUCAUGUAGCACUUAUAGGAAUAAAAGGACUUAUGGUAUUAGAAUUACCUAAAAGAUGGGGGAAGACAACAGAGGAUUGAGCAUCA` the bound/input enrichment was 0.859 ratio.
For `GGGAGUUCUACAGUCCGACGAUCCGGGAACUCAAACAUCUGAAUCAUCUUGAUAUCUCAGAUGAUAAACAGUUUACAUCAGACAUAGCUCUUCGCUUACUAGAACAAAAAGACAUCCUACCUAACCUUGUUUCUCUGGAUGUUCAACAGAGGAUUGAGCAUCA`, the bound/input enrichment was 0.543 ratio.
For `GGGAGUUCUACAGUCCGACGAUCGGCCAGGAACAGUCUUCACGGGGACAAAGAAUUUUAUCUAUUCCAAUUUGGCCCCCAAACCUAGGCAUCUCUCAGAACUGUGUUUAUGAGGCACAGCAGGUUCCCAAAGUAGAAAAAACACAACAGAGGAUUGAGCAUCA`, the bound/input enrichment was 0.865 ratio.
`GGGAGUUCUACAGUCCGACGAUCUGCUUCAGAACCCUUGUCUGUUGUGGUAUUGUAGAUGGGUUUAAGUCAUGGCCUCUUUUGAUAGAUUUUGUUGUGUCAUGUGAGCAAGUCAUUACACGAUCUACUGUUGGAAUGAACUGUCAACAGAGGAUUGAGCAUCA` gave a bound/input enrichment of 0.252 ratio.
With `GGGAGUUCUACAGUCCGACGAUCCCUGAAACUCCAAAGCAAAAAGGUGAAGGCCGGCCUGAAACUCCAAAACAUAGGCAUGAAAAUAGGAGGGAUUCUGGAAAGCCAUCAACAGAGAAGAAACCCGAUGUGUCUAAGCAUAAACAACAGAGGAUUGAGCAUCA` the bound/input enrichment was 0.778 ratio.
With `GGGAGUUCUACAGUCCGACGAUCUCUCAAAGUAGAGCCGAAUAUGAUUCAGAGGAGAGUCUGGGAAGUGAUGAUGAUGACAAUGAUGAUGAUGAUGAUGUUUUAGCAUCAGAUUUCCAUCUCCAGGAACAUUCUAAUUCAAAUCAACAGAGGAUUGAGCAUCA` the bound/input enrichment was 0.329 ratio.
The bound/input enrichment of `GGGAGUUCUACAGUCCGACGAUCAAGAAUGAAGUGGACCUGGUUGUUCACUCCUUGAAGGACCUGCCCACUGUGCUUCCUCCUGGCUUCACCAUCGGAGCCAUCUGCAAGCGGGAAAACCCUCAUGAUGCUGUUGUCUUUCACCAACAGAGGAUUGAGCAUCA` is reported as 0.058 ratio.

Block 2
Target: TAR DNA-binding protein 43, full length, His tag (TARDBP, Homo sapiens, UniProt Q13148, residues 1-414)
Technique: RNA Bind-n-Seq
Molecule type: RNA
Matrix: in vitro
Tested at: 20 nM
Setting: 6-mer, flanks averaged, single round
With: 150 mM KCl
Reference: input library
Reading: higher = stronger binding
Under “6-mer enrichment (R)”, `CAGCGA` is recorded as 0.894.
`ACCCAG`: “6-mer enrichment (R)” 0.718.
For `GAGAGA`, “6-mer enrichment (R)” read 1.6.
For `AUACUC`, “6-mer enrichment (R)” read 0.549.
`CUCCAU` — result for “6-mer enrichment (R)”: 0.588.
`CAACUC`: “6-mer enrichment (R)” 0.585.
Under “6-mer enrichment (R)”, `GGAGAA` is recorded as 1.69.
For `GAUACC`, “6-mer enrichment (R)” read 0.689.
`UGCUCU`: “6-mer enrichment (R)” 0.581.
`UCUUCA` — result for “6-mer enrichment (R)”: 0.533.
Under “6-mer enrichment (R)”, `AGGAAC` is recorded as 0.826.
`UCCAGC`: “6-mer enrichment (R)” 0.681.
Under “6-mer enrichment (R)”, `GGACGC` is recorded as 1.64.
For `UCUUCG`, “6-mer enrichment (R)” read 0.57.
Under “6-mer enrichment (R)”, `CUGGAC` is recorded as 0.834.

Block 3
Target: Ras GTPase-activating protein-binding protein 1, C-terminal RGG region (G3BP1, Homo sapiens, UniProt Q13283)
Sequence of UniProt Q13283 (whole entry, looked up): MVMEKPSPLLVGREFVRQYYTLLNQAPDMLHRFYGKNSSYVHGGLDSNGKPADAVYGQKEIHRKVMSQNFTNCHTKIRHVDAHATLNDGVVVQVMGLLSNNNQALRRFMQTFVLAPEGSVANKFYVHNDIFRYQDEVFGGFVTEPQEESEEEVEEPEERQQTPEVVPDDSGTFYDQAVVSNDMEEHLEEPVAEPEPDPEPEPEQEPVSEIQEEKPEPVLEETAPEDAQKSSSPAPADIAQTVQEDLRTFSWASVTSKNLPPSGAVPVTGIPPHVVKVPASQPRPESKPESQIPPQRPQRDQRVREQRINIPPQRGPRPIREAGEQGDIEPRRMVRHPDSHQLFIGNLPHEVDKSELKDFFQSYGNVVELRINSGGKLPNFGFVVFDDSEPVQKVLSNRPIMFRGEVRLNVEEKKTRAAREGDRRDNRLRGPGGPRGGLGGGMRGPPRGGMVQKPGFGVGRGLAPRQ
Technique: RNA Bind-n-Seq
Molecule type: RNA
Matrix: in vitro
Tested at: 1 µM
Setting: whole 134-nt RNA, ends assumed
With: 150 mM KCl
Reference: input library
Reading: higher = stronger binding
`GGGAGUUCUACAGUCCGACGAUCGCAGGAAGUAAAAACAAAUGGAAAUGCUUCGGAUAGUGGCAGGGGUGGGGGUUGCUAAGGAAAGGGUCGGAUGGGAGUGGGUAAAGAGUUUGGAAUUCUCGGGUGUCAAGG` has a log2 enrichment of 1.68.
For `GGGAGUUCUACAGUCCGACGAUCGUCCUGUGCUACACAUCGUAUGUACCGAAUCGGGGCCCCGGGGCCCCGGGGCCCCGGGGAAAGUAUUAUGUUACGCCGUUCGGAUCUGCAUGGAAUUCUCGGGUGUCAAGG`, the log2 enrichment was -1.44.
`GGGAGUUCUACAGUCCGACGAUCCCUCAAGUCCUGUGCUACACAUCGUAUGUACCGAAUCGGGAAGGGAAGGAAGGAAAGUAUUAUGUUACGCCGUUCGGAUCUGCACUUCCAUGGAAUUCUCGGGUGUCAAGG` gave a log2 enrichment of -1.61.
`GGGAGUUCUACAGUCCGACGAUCUCAAGUCCUGUGCUACACAUCGUAUGUACCGAAUCGGAGGAAAAAAAGGAAAGGAAAGUAUUAUGUUACGCCGUUCGGAUCUGCACUUCCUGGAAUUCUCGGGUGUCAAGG` gave a log2 enrichment of -1.43.
For `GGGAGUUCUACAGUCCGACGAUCCCUGUGCUACACAUCGUAUGUACCGAAUCAAACCCCCCCAAACCCCCAAACCCCCCCAAAAAAGUAUUAUGUUACGCCGUUCGGAUCUGCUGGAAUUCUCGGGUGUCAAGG`, the log2 enrichment was -0.782.
The log2 enrichment of `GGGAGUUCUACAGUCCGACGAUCCAAGUCCUGUGCUACACAUCGUAUGUACCGAAUCGGGAAAAAGGGAAAGGGAGGGAAAGUAUUAUGUUACGCCGUUCGGAUCUGCACUUCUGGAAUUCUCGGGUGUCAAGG` is reported as 1.76.
For `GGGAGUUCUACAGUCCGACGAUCGUCCUGUGCUACACAUCGUAUGUACCGAAUCGGGAAAAAGGGAAAAAGGGAAAAAGGGAAAGUAUUAUGUUACGCCGUUCGGAUCUGCACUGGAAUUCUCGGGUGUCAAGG`, the log2 enrichment was -0.341.
With `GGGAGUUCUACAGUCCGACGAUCAGUCCUGUGCUACACAUCGUAUGUACCGAAUCGGGUUUGGGAAAAAGGGAAAAAGGGAAAGUAUUAUGUUACGCCGUUCGGAUCUGCACUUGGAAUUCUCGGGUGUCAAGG` the log2 enrichment was 0.893.
The log2 enrichment of `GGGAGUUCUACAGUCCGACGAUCCCUCAAGUCCUGUGCUACACAUCGUAUGUACCGAAUCGGGUGGGGUGGGGUGGAAAGUAUUAUGUUACGCCGUUCGGAUCUGCACUUCCAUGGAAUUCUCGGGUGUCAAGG` is reported as 0.918.

Block 4
Target: Histone acetyltransferase KAT6A, winged helix 2, GST fusion (KAT6A, Homo sapiens, UniProt Q92794, residues 85-181)
Technique: protein binding microarray
Molecule type: double-stranded DNA, one strand shown
Matrix: in vitro
Tested at: not given
Setting: 8-mer, flanks averaged, mean of 2 arrays, mostly near background
Reference: not given
Reading: higher = stronger binding
Construct (chain): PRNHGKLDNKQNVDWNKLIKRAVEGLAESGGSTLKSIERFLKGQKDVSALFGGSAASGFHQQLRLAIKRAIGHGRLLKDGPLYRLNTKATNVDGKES
With `AGAAGGGG` the E-score was -0.0329.
`ACATATGA` has an E-score of -0.0395.
`GTAAGTAA` has an E-score of -0.394.
`AGGTTTTA` has an E-score of -0.058.
The E-score of `AGGCAAAT` is reported as 0.114.
`CACACTCA` has an E-score of 0.131.
`GTTAAGTA` has an E-score of -0.0436.
`GTGCCCAC` has an E-score of 0.0433.
`ACAACAAA` gave an E-score of 0.103.
`CTAGACAA` gave an E-score of -0.0581.
For `AGTCCCTC`, the E-score was 0.0636.
`GACGTGAA` has an E-score of -0.061.
For `TAATTTAA`, the E-score was 0.145.
For `ATGGCAAT`, the E-score was -0.0421.
For `GTGATTCA`, the E-score was -0.146.
For `AGATTCCA`, the E-score was -0.0563.
For `ATTAAACA`, the E-score was 0.0781.
With `CTCCCGGC` the E-score was 0.194.
With `AGGTACCG` the E-score was 0.0586.
The E-score of `GTAACTGA` is reported as -0.233.
The E-score of `GTACTAAA` is reported as 0.00596.
`TCAAACCA` has an E-score of 0.00498.
With `CTTCACTA` the E-score was 0.0294.
`GACAACAC` gave an E-score of -0.0225.
`AAACTACC` has an E-score of 0.0449.

Mixed results
P1: CABLES2 docking peptide (human); ICAKRSLCAAFSV; partner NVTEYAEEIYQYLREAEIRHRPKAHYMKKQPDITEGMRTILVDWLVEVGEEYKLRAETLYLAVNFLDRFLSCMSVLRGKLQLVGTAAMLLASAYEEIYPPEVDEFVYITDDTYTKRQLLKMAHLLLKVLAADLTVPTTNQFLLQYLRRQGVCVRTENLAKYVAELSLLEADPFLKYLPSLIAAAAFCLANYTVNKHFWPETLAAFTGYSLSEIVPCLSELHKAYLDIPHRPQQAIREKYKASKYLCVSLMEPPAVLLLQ
The enrichment score of `IPDRSTKPVVFSPT` is reported as 0.406 (peptide binding; peptide, yeast competitive growth; with: B2-Cln2 chimera; direction not given).
`PPVIIKYIIINRF` has an enrichment score of 0.056 (Saccharomyces cerevisiae; peptide binding, yeast competitive growth sequencing; peptide, cyclin F-Cln2 fusion; library 2; direction not given).
`HRRRLLFACSPPPASQ` gave an enrichment score of -1.67 (peptide binding; peptide, yeast competitive growth; with: B2-Cln2 chimera; direction not given).
For `P1 L7A`, “normalised enrichment score” read -0.144 (CCNA1, cyclin fold, Cln2 fusion (human); yeast growth competition, sequencing; yeast; weak parent motif; reference: not given, higher = stronger binding).

Repeated from above (block 4):
With `AGAAGGGG` the E-score was -0.0329.
For `ATTAAACA`, the E-score was 0.0781.
`GTTAAGTA` has an E-score of -0.0436.
`CTAGACAA` gave an E-score of -0.0581.
For `ATGGCAAT`, the E-score was -0.0421.
For `AGTCCCTC`, the E-score was 0.0636.
With `CTCCCGGC` the E-score was 0.194.
`TCAAACCA` has an E-score of 0.00498.
